Measurements from different studies.
Each line is one published result; not all experiments were run side by side. ± marks the error that the study gave.
U2AF2: U2AF2 148-342 (Homo sapiens, UniProt P26368)
Sequence of UniProt P26368 (whole entry, looked up): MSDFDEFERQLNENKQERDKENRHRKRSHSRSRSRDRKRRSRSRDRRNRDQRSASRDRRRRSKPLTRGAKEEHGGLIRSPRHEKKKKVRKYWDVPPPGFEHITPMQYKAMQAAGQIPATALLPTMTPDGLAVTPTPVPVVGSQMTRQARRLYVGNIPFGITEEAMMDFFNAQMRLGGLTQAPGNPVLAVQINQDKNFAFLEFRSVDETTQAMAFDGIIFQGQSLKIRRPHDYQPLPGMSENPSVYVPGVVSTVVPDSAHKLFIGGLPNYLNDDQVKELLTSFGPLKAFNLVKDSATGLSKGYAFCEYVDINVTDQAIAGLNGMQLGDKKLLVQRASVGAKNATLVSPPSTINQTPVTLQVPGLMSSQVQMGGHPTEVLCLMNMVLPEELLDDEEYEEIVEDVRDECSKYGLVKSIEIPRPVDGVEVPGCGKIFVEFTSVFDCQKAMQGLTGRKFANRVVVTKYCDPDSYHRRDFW
T1: itself; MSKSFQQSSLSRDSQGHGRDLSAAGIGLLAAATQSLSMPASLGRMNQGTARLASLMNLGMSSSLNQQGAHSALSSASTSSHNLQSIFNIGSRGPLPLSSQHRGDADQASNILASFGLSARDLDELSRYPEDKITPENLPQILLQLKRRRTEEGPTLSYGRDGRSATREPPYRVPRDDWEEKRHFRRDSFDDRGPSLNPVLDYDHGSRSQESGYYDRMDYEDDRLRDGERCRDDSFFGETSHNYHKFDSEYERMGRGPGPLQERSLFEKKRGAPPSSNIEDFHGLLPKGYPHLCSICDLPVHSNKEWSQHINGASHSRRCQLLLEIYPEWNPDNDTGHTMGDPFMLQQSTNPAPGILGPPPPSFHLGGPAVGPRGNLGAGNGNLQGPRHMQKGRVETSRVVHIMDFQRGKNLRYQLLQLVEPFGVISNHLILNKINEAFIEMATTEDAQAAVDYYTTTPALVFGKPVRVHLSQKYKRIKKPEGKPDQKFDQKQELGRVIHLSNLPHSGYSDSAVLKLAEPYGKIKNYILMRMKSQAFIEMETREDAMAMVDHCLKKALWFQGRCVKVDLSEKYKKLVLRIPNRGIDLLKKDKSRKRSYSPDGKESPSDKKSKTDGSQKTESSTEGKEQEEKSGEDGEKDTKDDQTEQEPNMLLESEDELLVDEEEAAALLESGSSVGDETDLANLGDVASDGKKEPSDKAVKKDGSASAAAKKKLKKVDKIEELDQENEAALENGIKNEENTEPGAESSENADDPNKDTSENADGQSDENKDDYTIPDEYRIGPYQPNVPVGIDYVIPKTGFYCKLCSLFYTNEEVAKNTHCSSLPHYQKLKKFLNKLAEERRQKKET
T2: itself; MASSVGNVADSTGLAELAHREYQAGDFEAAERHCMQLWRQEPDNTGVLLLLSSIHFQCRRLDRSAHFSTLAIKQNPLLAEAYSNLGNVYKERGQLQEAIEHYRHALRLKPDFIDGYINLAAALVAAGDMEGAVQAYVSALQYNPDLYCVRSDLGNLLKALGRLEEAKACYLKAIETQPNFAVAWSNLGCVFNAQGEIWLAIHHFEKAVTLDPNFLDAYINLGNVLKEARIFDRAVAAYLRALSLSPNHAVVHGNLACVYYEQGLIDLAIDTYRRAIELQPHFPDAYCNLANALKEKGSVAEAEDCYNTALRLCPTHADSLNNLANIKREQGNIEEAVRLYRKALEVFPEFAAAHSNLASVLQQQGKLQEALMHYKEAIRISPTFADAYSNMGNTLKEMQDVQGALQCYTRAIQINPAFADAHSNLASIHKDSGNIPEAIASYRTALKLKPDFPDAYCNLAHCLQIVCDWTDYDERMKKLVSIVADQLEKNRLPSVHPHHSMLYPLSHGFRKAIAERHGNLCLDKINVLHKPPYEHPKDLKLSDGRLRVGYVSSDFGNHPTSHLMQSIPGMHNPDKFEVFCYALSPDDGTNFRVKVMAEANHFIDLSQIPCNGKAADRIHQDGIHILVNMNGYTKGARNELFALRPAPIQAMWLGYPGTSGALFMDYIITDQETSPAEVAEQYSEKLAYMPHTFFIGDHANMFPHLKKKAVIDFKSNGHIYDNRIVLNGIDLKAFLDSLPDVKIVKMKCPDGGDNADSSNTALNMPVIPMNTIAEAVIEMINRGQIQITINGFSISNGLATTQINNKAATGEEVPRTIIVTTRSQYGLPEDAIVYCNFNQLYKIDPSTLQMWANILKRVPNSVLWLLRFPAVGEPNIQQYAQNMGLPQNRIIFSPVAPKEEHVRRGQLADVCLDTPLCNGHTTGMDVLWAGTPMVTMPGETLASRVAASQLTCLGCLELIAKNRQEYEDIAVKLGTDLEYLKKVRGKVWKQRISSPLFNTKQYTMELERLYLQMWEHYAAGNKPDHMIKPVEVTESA
B1: S100A1 (Homo sapiens, UniProt P23297); chain MGSELETAMETLINVFHAHSGKEGDKYKLSKKELKELLQTELSGFLDAQKDVDAVDKVMKELDENGDGEVDFQEYVVLVAALTVACNNFFWENS
B2: racE T25N/S192D/E173R (Dictyostelium discoideum, UniProt Q23862); sequence looked up; chain MSEDQGSGATRVKLVVVGDGAVGKNCLLICYAQNDFPVDYVPTVFENYTATRKRGNEDIKVHLWDTAGQEEYDRLRPLSYPGADVVLLCFSTISQSSYEAIRDKWAPEVNHYIPDVPSILVGTKIDLREQQHPDPNSGKFEPITADMGISMQKQIKAKKYLEVSAKTRQGLERVFSAAIEIVLESRGMDKKDQDGSSSASGVPSGDKPTKGKAGKKKSGCIIL
B3: human corneodesmosin; sequence looked up; chain KSIGTFSDPCKDPTRITSPNDPCLTGKGDSSGFSSYSGSSSSGSSISSARSSGGGSSGSSSGSSIAQGGSAGSFKPGTGYSQVSYSSGSGSSLQGASGSSQLGSSSSHSGNSGSHSGSSSSHSSSSSSFQFSSSSFQVGNGSALPTNDNSYRGILNPSQPGQSSSSSQTFGVSSSGQSVSSNQRPCSSDIPDSPCSGGPIVSHSGPYIPSSHSVSGGQRPVVVVVDQHGSGAPGVVQGPPCSNGGLPGKPCPPITSVDKSYGGYEVVGGSSDSYLVPGMTYSKGKIYPVGYFTKENPVKGSPGVPSFAAGPPISEGKYFSSNPIIPSQSAASSAIAFQPVGTGGVQLCGGGSTGSKGPCSPSSSRVPSSSSISSSSGLPYHPCGSASQSPCSPPGTGSFSSSSSSQSSGKIILQPCGSKSSSSGHPCMSVSSLTLTGGPDGSPHPDPSAGAKPCGSSSAGKIPCRSIRDILAQVKPLGPQLADPEVFLPQGELLNSP
B4: HNRNPA0 178-304 (Homo sapiens, UniProt Q13151); sequence looked up; chain DIYSGGGGGGSRSSRGGRGGRGRGGGRDQNGLSKGGGGGYNSYGGYGGGGGGGYNAYGGGGGGSSYGGSDYGNGFGGFGSYSQHQSSYGPMKSGGGGGGGGSSWGGRSNSGPYRGGYGGGGGYGGSS
Sequence of UniProt P08588 (whole entry, looked up): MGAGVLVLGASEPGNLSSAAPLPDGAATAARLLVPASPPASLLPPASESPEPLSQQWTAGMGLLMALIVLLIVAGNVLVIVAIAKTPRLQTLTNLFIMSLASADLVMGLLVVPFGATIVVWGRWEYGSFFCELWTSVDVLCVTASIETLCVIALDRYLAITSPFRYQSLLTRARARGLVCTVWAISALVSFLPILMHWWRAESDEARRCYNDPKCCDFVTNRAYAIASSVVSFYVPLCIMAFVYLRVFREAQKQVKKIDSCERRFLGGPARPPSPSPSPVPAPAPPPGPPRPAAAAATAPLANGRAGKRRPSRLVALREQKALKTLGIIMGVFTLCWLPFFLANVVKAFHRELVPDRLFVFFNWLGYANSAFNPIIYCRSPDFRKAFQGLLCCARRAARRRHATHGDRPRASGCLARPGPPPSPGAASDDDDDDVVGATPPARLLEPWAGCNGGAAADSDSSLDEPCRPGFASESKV
Sequence of UniProt P13393 (whole entry, looked up): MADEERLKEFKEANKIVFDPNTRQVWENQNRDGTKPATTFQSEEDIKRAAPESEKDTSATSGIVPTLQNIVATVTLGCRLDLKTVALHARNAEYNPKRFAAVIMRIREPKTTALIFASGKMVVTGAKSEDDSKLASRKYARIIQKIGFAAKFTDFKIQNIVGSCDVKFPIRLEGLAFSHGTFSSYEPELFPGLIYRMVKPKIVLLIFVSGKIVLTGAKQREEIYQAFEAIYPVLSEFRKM
Sequence of UniProt Q23985 (whole entry, looked up): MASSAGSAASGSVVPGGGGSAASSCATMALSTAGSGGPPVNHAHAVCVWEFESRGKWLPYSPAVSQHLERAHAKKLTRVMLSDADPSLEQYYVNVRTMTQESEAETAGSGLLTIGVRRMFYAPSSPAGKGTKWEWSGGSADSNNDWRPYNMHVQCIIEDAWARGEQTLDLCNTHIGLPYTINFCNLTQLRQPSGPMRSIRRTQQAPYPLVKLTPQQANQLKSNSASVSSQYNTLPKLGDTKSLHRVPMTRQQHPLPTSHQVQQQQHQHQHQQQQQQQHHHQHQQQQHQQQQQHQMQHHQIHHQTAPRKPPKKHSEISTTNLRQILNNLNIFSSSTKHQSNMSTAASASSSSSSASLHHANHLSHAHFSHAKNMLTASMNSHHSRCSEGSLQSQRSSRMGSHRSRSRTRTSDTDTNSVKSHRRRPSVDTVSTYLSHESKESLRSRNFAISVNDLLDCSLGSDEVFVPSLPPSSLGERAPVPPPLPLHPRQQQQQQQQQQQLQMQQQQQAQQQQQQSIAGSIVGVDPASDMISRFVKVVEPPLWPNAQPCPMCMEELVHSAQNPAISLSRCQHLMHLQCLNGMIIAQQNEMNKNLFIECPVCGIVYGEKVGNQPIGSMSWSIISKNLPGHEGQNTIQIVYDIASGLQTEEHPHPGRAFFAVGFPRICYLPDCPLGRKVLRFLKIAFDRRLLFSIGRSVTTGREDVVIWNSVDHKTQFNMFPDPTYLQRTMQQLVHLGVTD
Sequence of UniProt P0A9A6 (whole entry, looked up): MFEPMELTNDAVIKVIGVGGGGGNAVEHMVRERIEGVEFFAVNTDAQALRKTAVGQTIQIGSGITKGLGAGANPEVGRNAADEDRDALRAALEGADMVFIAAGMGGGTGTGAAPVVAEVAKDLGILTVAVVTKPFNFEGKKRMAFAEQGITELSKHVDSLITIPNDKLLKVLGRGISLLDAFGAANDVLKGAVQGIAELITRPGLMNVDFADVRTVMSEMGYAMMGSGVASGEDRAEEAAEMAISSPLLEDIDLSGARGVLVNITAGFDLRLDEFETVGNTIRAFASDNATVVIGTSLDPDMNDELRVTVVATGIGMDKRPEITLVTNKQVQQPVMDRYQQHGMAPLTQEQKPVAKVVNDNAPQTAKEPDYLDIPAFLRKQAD

| Substance | tested on | assay | test system | setting | how to read | quantity | result |
| --- | --- | --- | --- | --- | --- | --- | --- |
| B1 (S100A1) | itself | AUC | – | – | – | Kd | 30 ± 6 µM |
| cyanophycin synthetase 2 | itself | cyanophycin synthesis | – | – | reference: wild type, higher = more active | normalized synthesis activity | 1.03 |
| AR (Homo sapiens, UniProt P10275) | itself | AUC | – | – | – | Kd | > 14 µM |
| ADRB1 (Homo sapiens, UniProt P08588) | itself | BRET | – | wild type, no competitor | higher = weaker self-association | BRET50 | 0.36 GFP/Rluc ratio |
| B2 (racE T25N/S192D/E173R) | itself | pull-down | – | – | – | binding | binds |
| ftsZ (Escherichia coli, UniProt P0A9A6) | itself | filament formation, GTPase rate x-intercept | – | – | – | critical concentration | 0.52 µM |
| FLS2 monomeric (Arabidopsis thaliana, UniProt Q9FL28) | itself | VA-TIRFM, single-particle tracking | – | resting state, in cells | – | association dwell time | 8 s |
| TOC34 ΔC (Pisum sativum) | itself | fluorescence kinetics | – | 22 °C, added: mantGDP | – | koff | 0.00045 s⁻¹ |
| clcA fragment C85A/H234C/I422A/L423A/I426A/L430A/L434A (Escherichia coli) | itself | SEC | – | 12 days, 4 °C | – | dimer decay half-life | 26 days |
| Notch ankyrin domain (Drosophila) | itself | AUC | – | – | – | Kd | 1620 µM |
| EGFR fragment, 15N/13C-labeled (Homo sapiens) | itself | NMR, 1H/15N-HSQC | bicelles | 40 °C | – | dimer:monomer ratio | 2 dimer:monomer |
| clcA C85A/H234C/L194A (Escherichia coli) | itself | SEC | – | room temperature | – | dimer decay half-life | 0.4 days |
| CTCAGGAATTCCTATAAGGTAATGTGGAGCTCAGTTCAAGTCAATCGGTCC (dsDNA; 5'-amino-C6 primer) | SPT15 full length assumed (Saccharomyces cerevisiae, UniProt P13393) | array | double-stranded DNA, one strand shown | TBP alone | – | Kd | 0.00211 ± 0.00021 µM |
| CAMK2D F368A (Homo sapiens) | itself | mass photometry | – | 100 nM | higher = more dimers | dimers | 10% |
| B3 (human corneodesmosin) | CYB5R4 knockout human cells | PP4 interaction, 3xFLAG-PP4C IP-MS | – | concentration not given | reference: CYB5R4 KO over parental | log2 fold change | 0.0333 |
| AUUCUUACU (ssRNA) | U2AF2 | sequencing of bound RNA | RNA | motif only | – | Kd | 5.52 µM |
| B4 (HNRNPA0 178-304) | itself | hydrogel trapping | – | – | – | binding | binds |
| human Hsc70 | PP6C (human) | co-immunoprecipitation, IP-MS | CYB5R4 knockout cells | concentration not given | reference: CYB5R4 knockout over parental | log2 fold change | -0.14 |
| MATR3 (Homo sapiens, UniProt P43243) | T1, itself | RALS | – | full-length human | – | sphere-to-worm transition concentration | 0.2 µM |
| OCP fragment R27L (Synechocystis sp. PCC 6803) | itself | SAXS | – | – | – | Kd | < 14 µM |
| CUUUCCUUU (ssRNA) | U2AF2 | sequencing of bound RNA | RNA | motif only | – | Kd | 0.39 µM |
| OGT (UniProt O15294-3) | T2, itself | TR-FRET | – | added: CoraFluor-labelled OGT 1 nM | – | Kd | 0.039 µM |
| dx (Drosophila melanogaster, UniProt Q23985) | itself | AUC | – | – | – | Kd | 1010 µM |

For quick reference, copied from above:
| Substance | tested on | assay | test system | setting | how to read | quantity | result |
| --- | --- | --- | --- | --- | --- | --- | --- |
| CUUUCCUUU (ssRNA) | U2AF2 | sequencing of bound RNA | RNA | motif only | – | Kd | 0.39 µM |
| AR (Homo sapiens, UniProt P10275) | itself | AUC | – | – | – | Kd | > 14 µM |
| EGFR fragment, 15N/13C-labeled (Homo sapiens) | itself | NMR, 1H/15N-HSQC | bicelles | 40 °C | – | dimer:monomer ratio | 2 dimer:monomer |
| OGT (UniProt O15294-3) | T2, itself | TR-FRET | – | added: CoraFluor-labelled OGT 1 nM | – | Kd | 0.039 µM |
